Results from different studies.
ACKR4: ACKR4 (Homo sapiens, UniProt Q9NPB9)
B1: CCL21 mature, 1-111 (Homo sapiens, UniProt O00585); sequence looked up; chain SDGGAQDCCLKYSQRKIPAKVVRSYRKQEPSLGCSIPAILFLPRKRSQAELCADPKELWVQQLMQHLDKTPSPQKPAQGCRKDRGASKTGKKGKGSKGCKRTERSQTPKGP
B2: UGT1A9 (Homo sapiens, UniProt O60656); chain GKLLVVPMDGSHWFTMRSVVEKLILRGHEVVVVMPEVSWQLGRSLNCTVKTYSTSYTLEDLDREFKAFAHAQWKAQVRSIYSLLMGSYNDIFDLFFSNCRSLFKDKKLVEYLKESSFDAVFLDPFDNCGLIVAKYFSLPSVVFARGILCHYLEEGAQCPAPLSYVPRILLGFSDAMTFKERVRNHIMHLEEHLLCHRFFKNALEIASEILQTPVTEYDLYSHTSIWLLRTDFVLDYPKPVMPNMIFIGGINCHQGKPLPMEFEAYINASGEHGIVVFSLGSMVSEIPEKKAMAIADALGKIPQTVLWRYTGTRPSNLANNTILVKWLPQNDLLGHPMTRAFITHAGSHGVYESICNGVPMVMMPLFGDQMDNAKRMETKGAGVTLNVLEMTSEDLENALKAVINDKSYKENIMRLSSLHKDRPVEPLDLAVFWVEFVMRHKGAPHLRPAAHDLTWYQYHSLDVIGFLLAVVLTVAFITFKCCAYGYRKCLGKKGRVKKAHKSKTH
B3: EIF4G2 48-907 (Homo sapiens, UniProt P78344); chain QKWIPARSTRRDDNSAANNSANEKERHDAIFRKVRGILNKLTPEKFDKLCLELLNVGVESKLILKGVILLIVDKALEEPKYSSLYAQLCLRLAEDAPNFDGPAAEGQPGQKQSTTFRRLLISKLQDEFENRTRNVDVYDKRENPLLPEEEEQRAIAKIKMLGNIKFIGELGKLDLIHESILHKCIKTLLEKKKRVQLKDMGEDLECLCQIMRTVGPRLDHERAKSLMDQYFARMCSLMLSKELPARIRFLLQDTVELREHHWVPRKAFLDNGPKTINQIRQDAVKDLGVFIPAPMAQGMRSDFFLEGPFMPPRMKMDRDPLGGLADMFGQMPGSGIGTGPGVIQDRFSPTMGRHRSNQLFNGHGGHIMPPTQSQFGEMGGKFMKSQGLSQLYHNQSQGLLSQLQGQSKDMPPRFSKKGQLNADEISLRPAQSFLMNKNQVPKLQPQITMIPPSAQPPRTQTPPLGQTPQLGLKTNPPLIQEKPAKTSKKPPPSKEELLKLTETVVTEYLNSGNANEAVNGVREMRAPKHFLPEMLSKVIILSLDRSDEDKEKASSLISLLKQEGIATSDNFMQAFLNVLDQCPKLEVDIPLVKSYLAQFAARAIISELVSISELAQPLESGTHFPLFLLCLQQLAKLQDREWLTELFQQSKVNMQKMLPEIDQNKDRMLEILEGKGLSFLFPLLKLEKELLKQIKLDPSPQTIYKWIKDNISPKLHVDKGFVNILMTSFLQYISSEVNPPSDETDSSSAPSKEQLEQEKQLLLSFKPVMQKFLHDHVDLQVSALYALQVHCYNSNFPKGMLLRFFVHFYDMEIIEEEAFLAWKEDITQEFPGKGKALFQVNQWLTWLETAEEEESEEEAD
B4: Ric8b 1-483 R75E (Mus musculus, UniProt Q80XE1); chain MDEERALYIVRAGEAGAIERVLRDYSDKHRATFKFESADEDKRKKLCEGIFKVLVKEVPTTCQVSCLEVLRILSEDKKILVPVTTKENMQILLRLAKLHESDDSLEKVSEFPVIVESLKCLCNIVFNSQMAQQLSLELNLAAKLCNLLRKCKDRKFINDIKCFDLRLLFVLSLLHTDIRSQLRYELQGLPLLTQILESAFSIKWTDEYESAIDHNGPPLSPQETDCAIEALKALFNVTVDSWKVHKESDSHQFRVMAAVLRHCLLIVGPTEDKTEELHSNAVNLLSNVPVSCLDVLICPLTHEETAQEAATLDELPSDKTTEKDTALKNSTMVYNGMNMEAIHVLLNFMEKRIDKGSSYREGLTPVLSLLTECSRAHRNIRKFLKDQVLPPLRDVTNRPEVGSTVRNKLVRLMTHVDLGVKQIAAEFLFVLCKERVDSLLKYTGYGNAAGLLAARGLLAGGRGDNWYSEDEDTDTEEYKNAKP

Molecule | target or system | assay | system | setting | how to read | endpoint | value
ssb fragment (Escherichia coli) | priA (Escherichia coli, UniProt P17888) | ATPase activity | – | – | reference: his-SSB, higher = more stimulation | ATPase stimulation | 85%
B1 (CCL21 mature, 1-111) | ACKR4 | β-arrestin recruitment, agonist, NanoLuc complementation | – | – | – | EC50 | 22 nM
GSN E553K (Homo sapiens) | actin, pyrene label (Oryctolagus cuniculus, UniProt P68135) | F-actin severing, fluorimetric pyrene-actin assay | – | 20 °C, without Ca2+, added: GSN 0.25 µM | – | depolymerization rate | 3.8 h⁻¹
cyp102A1 flavin reductase domain (Bacillus megaterium) | CYP3A4 del3-12 (Homo sapiens, UniProt P08684) | BMR-dependent reduction | proteoliposomes | added: ANF | – | slow phase rate constant | 0.0027 s⁻¹
B2 (UGT1A9) | COc1cc2ccc(=O)oc2cc1O | steady-state kinetics | – | pH 7.4, 37 °C | – | Vmax | 0.00106 µmol/min/mg
B3 (EIF4G2 48-907) | EIF4A1 (Homo sapiens, UniProt P60842) | fluorescence helicase assay | – | 1 µM, added: eIF4B | – | RNA unwinding initial rate | 4.5 % per minute
NOTCH2NLB (Homo sapiens, UniProt P0DPK3) | NOTCH2 (Homo sapiens, UniProt Q04721) | NOTCH2-GAL4 reporter | U2OS | co-culture with JAG2 cells | reference: empty vector, higher = more activation | reporter activation | 21%
B4 (Ric8b 1-483 R75E) | GNAL 1-381 (Homo sapiens, UniProt P38405) | luminescence | RIC-8B knockout HEK293T | – | reference: wild-type Ric-8B, higher = more folding | sensor folding | 2%
EPB41 fragment (Homo sapiens) | SLC9A1 residues 506-575 (Rattus norvegicus) | resonant mirror detection | – | pH 8.5 | – | fold increase of Kd | > 20 times
CCL21 (UniProt O00585) | ACKR4 | β-galactosidase activity, agonist, EFC | CHO-CCX-CKR | added: wild-type CXCL12 | – | pEC50 | 8.7
WSHWSP (THBS1 residues 438-443 (Homo sapiens)) | FN1 intact plasma (Homo sapiens) | competition with coated peptide, radioligand binding | peptide | – | – | IC50 | > 300000 nM
FKBP1A (Homo sapiens, UniProt P62942) | RYR1, pS2843 (UniProt P11716) | single-channel gating | planar lipid bilayers | – | – | closed time | 1.4 ms

For quick reference, copied from above:
Molecule | target or system | assay | system | setting | how to read | endpoint | value
B4 (Ric8b 1-483 R75E) | GNAL 1-381 (Homo sapiens, UniProt P38405) | luminescence | RIC-8B knockout HEK293T | – | reference: wild-type Ric-8B, higher = more folding | sensor folding | 2%
